{"data": "Measured values pooled from the literature", "note": "Each numbered part is a random draw from the data of one study; scales do not carry over between parts."}
{"data": "Study 1", "organism": "Saccharomyces cerevisiae", "read-out": "binding", "technique": "yeast competitive growth sequencing", "form": "peptide", "notes": "cyclin B2-Cln2 chimera", "reading": "direction not given"}
{"Sequence": "DKYDEGLYRFNSLNDL", "enrichment score": 1.05}
{"Sequence": "NEGVSNAVRRSLYIRD", "enrichment score": -0.481}
{"Sequence": "QYQVVDDIVSKLVFDF", "enrichment score": 0.26}
{"Sequence": "NSMKELNFSHLPSNSV", "enrichment score": 0.816}
{"Sequence": "HPESPPRKRLKSKGSD", "enrichment score": 4.76}
{"Sequence": "EHCRVLFLDHVMYTIH", "enrichment score": -0.499}
{"Sequence": "LENIEPLQVSFAVLSS", "enrichment score": 1.01}
{"Sequence": "ASVLSKPIFCFVKD", "enrichment score": -0.385}
{"Sequence": "SNFFDVIKQLFSDEKN", "enrichment score": -1.4}
{"Sequence": "VLPGGVPSPGASLTSM", "enrichment score": -0.45}
{"Sequence": "AEHPKPSACRNLFGPV", "enrichment score": -0.435}
{"Sequence": "NESHLDKEHDAVEVAD", "enrichment score": 0.213}
{"Sequence": "ESSQLTVQAEFDMSAI", "enrichment score": 0.156}
{"Sequence": "QNPCGSKACRRLFGPV", "enrichment score": -1.15}
{"Sequence": "KVRRNLFNQELLSP", "enrichment score": -0.245}
{"Sequence": "DVSERGYVILPNDYFE", "enrichment score": 0.784}
{"Sequence": "ATNSSHTDAHEILVSD", "enrichment score": 0.689}
{"data": "Study 2", "target": "Interferon regulatory factor 7, full length, phosphomimetic (IRF7, Homo sapiens, UniProt Q92985, residues 1-503, S101K/S471D/S472D/S475D/S476D/S477D/S483D/S484D/S487D)", "technique": "protein-binding microarray", "form": "double-stranded DNA, one strand shown", "sample": "in vitro", "concentration": "250 nM", "notes": "60-bp whole probe", "together with": "salmon DNA 0.4 mg/ml", "relative to": "random background probes", "reading": "higher = stronger binding", "shared flanks, not repeated": "GCCTAGCAC … GTCTTGATTCGCTTGACGCTGCTG", "Target sequence (chain)": "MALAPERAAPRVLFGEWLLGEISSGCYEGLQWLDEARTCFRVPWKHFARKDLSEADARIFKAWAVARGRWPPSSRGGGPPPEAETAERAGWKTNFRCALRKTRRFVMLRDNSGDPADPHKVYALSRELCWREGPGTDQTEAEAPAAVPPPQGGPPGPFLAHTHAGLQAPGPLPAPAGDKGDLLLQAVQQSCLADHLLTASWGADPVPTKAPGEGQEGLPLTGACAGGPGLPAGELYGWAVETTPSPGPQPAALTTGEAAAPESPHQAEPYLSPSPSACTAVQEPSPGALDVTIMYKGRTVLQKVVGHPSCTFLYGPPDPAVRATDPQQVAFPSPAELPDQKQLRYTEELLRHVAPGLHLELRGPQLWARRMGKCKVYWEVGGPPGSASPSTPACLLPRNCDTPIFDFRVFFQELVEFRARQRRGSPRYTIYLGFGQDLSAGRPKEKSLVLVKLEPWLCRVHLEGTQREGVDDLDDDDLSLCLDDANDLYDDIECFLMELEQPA"}
{"Sequence": "TCCCTTTCAGTTTTCCTCTGGTGCTAG", "log fluorescence [z-score]": 1.5}
{"Sequence": "TTACGTCTCGGTATCGGTTAGTGCTAG", "log fluorescence [z-score]": 2.12}
{"Sequence": "TTAGGACTGGGGTATCGGTCAGTGCTA", "log fluorescence [z-score]": -0.554}
{"Sequence": "TCAGTTTTACAATTTGCACTGTGCTAG", "log fluorescence [z-score]": 0.396}
{"Sequence": "TAGCTTCTCAATTAAAAAAAGTGCTAG", "log fluorescence [z-score]": 0.69}
{"Sequence": "TTAGGACTGGGGTTTCGGGTAGTGCTA", "log fluorescence [z-score]": 2.67}
{"Sequence": "TCACCTCTTTCTCTGCTACTGTGCTAG", "log fluorescence [z-score]": 1.17}
{"Sequence": "ATTTAAGTTTCACTCTGCATGGTGCTA", "log fluorescence [z-score]": 3.82}
{"Sequence": "AAAAATGATTGGTTGAACATGTGCTAG", "log fluorescence [z-score]": -0.399}
{"Sequence": "GACGGTTTGCTTCTCCTGACGTGCTAG", "log fluorescence [z-score]": 0.209}
{"Sequence": "TGAGAACTGAGTATCGATTAGTGCTAG", "log fluorescence [z-score]": 0.41}
{"Sequence": "TTAGGTTTCGACACTGTGTTAGTGCTA", "log fluorescence [z-score]": 3.71}
{"Sequence": "TTAGATATTGGGACTGGATTAGTGCTA", "log fluorescence [z-score]": -0.0754}
{"Sequence": "TTAGGTATCGGTATCCGTTAGTGCTAG", "log fluorescence [z-score]": 1.98}
{"Sequence": "AACCATTTTGGTTTTCCTTAGTGCTAG", "log fluorescence [z-score]": 0.9}
{"Sequence": "TTTTTTTTTTTTTCTGATCCGTGCTAG", "log fluorescence [z-score]": 0.9}
{"Sequence": "GACGGTTTGCTTATCCTGACGTGCTAG", "log fluorescence [z-score]": -0.00126}
{"Sequence": "TTAGATCTCGGTTTCGGTTAGTGCTAG", "log fluorescence [z-score]": 9.05}
{"Sequence": "GACGAACTGGGGTATGGAGACGTGCTA", "log fluorescence [z-score]": -0.661}
{"Sequence": "GACGGTCTCCTTCTCCTGAAGTGCTAG", "log fluorescence [z-score]": 0.108}
{"Sequence": "TTAGGTTTCGACAATCGGTTAGTGCTA", "log fluorescence [z-score]": 2.98}
{"Sequence": "TTAGGTATCGGGTTTCGGTTTGTGCTA", "log fluorescence [z-score]": 11.5}
{"Sequence": "AACACAAACCCGCTGGAGTTGTGCTAG", "log fluorescence [z-score]": -0.32}
{"Sequence": "TAAGATTTCAGTCTCGATTAGTGCTAG", "log fluorescence [z-score]": 2}
{"Sequence": "GACGAACTGAGTTACGAGACGTGCTAG", "log fluorescence [z-score]": -0.198}
{"data": "Study 3", "target": "Fragile X messenger ribonucleoprotein 1, C-terminal low-complexity region (Fmr1, Mus musculus, UniProt P35922)", "technique": "RNA Bind-n-Seq", "form": "RNA", "sample": "in vitro", "concentration": "200 nM", "notes": "whole 134-nt RNA, ends assumed", "together with": "150 mM KCl", "relative to": "input library", "reading": "higher = stronger binding", "shared flanks, not repeated": "GGGAGUUCUACAGUCCGACGAUC … UGGAAUUCUCGGGUGUCAAGG"}
{"Sequence": "AAGUCCUGUGCUACACAUCGUAUGUACCGAAUCGGGGAAAGGGGAAAGGGGAAAGGGAAAGUAUUAUGUUACGCCGUUCGGAUCUGCACU", "log2 enrichment": 0.213}
{"Sequence": "UUAAGAAUAUUUAGAUAUUUGUAAAAGAAUUUGAAUGAUUUAUUUAAUAUAACGUUUAUUUUAUUAGCUCUAUUCCAAUUGAUUACAACC", "log2 enrichment": -1.3}
{"Sequence": "CACAGACAACACGCACCCACACAGACACAGAGGGAAGGGGUUGGGAUGGGGACAGGGUGCACAGCAGGGCGGGGUAGGACCUCAGCCCCU", "log2 enrichment": 1.17}
{"Sequence": "GUCCUGUGCUACACAUCGUAUGUACCGAAUCGGAAAAAAGGAAAAAAGGAAAAAAGGGGAAAGUAUUAUGUUACGCCGUUCGGAUCUGCA", "log2 enrichment": -0.572}
{"Sequence": "GCAGGAAUUAAAAACAAAUGGAAAUGCUUCGGAUAGUGGCAGGGGUGGGGGUUGCUAAGGAAAGGGUGGGAUGGGAGUGGGUAAAGAGUU", "log2 enrichment": 0.539}
{"Sequence": "UAACUUUAGAGGAGGAUCUGAUGGAUAUGGCAGCGGACGUGGAUUUGGGGAUGGCUAUAAUGGGUAUGGAGGAGGACCUGGAGGUGGCAA", "log2 enrichment": 0.234}
{"Sequence": "AGUCCUGUGCUACACAUCGUAUGUACCGAAUCGGGGCCCCGGCCCCGGGGCCCCGGGGAAAGUAUUAUGUUACGCCGUUCGGAUCUGCAC", "log2 enrichment": -1.51}
{"Sequence": "UCAAGUCCUGUGCUACACAUCGUAUGUACCGAAUCGGGUUGGGGUUGGGUUGGGAAAGUAUUAUGUUACGCCGUUCGGAUCUGCACUUCC", "log2 enrichment": 1.33}
{"Sequence": "CAAGUCCUGUGCUACACAUCGUAUGUACCGAAUCAAACCCAAAUUUAAAUUUAAAAAAGUAUUAUGUUACGCCGUUCGGAUCUGCACUUC", "log2 enrichment": 0.335}
{"Sequence": "GCAGGAAGUAAAAACAAAUGGAAAUGCUUCGGAUAGUGGCAGGGGUGGGGUUUGCUAAGGAAAGGGUGGGAUGGGAGUGGGUAAAGAGUU", "log2 enrichment": 0.224}
{"Sequence": "GUCCUGUGCUACACAUCGUAUGUACCGAAUCGGGGUUUUUUUGGGGUUUGGGGAGGGGAAAGUAUUAUGUUACGCCGUUCGGAUCUGCAC", "log2 enrichment": 0.53}
{"Sequence": "UCCUGUGCUACACAUCGUAUGUACCGAAUCAAAUUUUUAAAUUUUUAAAUUUUUUUAAAAAAGUAUUAUGUUACGCCGUUCGGAUCUGCA", "log2 enrichment": -0.325}
{"Sequence": "AGUCCUGUGCUACACAUCGUAUGUACCGAAUCAAACCCAAAUUUUUUUAAACCCAAAAAAGUAUUAUGUUACGCCGUUCGGAUCUGCACU", "log2 enrichment": -0.128}
{"Sequence": "UGGGAGGUGGAUUUUGUUUAUUUUUUUAGCUCAUUUCCAGGGGUGGGAAUUUUUUUUUAAUAUGUGUCAUGAAUAAAGUUGUUUUUGAAA", "log2 enrichment": -0.304}
{"data": "Study 4", "target": "Prothrombin, mature alpha-thrombin (F2, Homo sapiens, UniProt P00734)", "technique": "aptamer microarray, sandwich", "form": "DNA with 2'F-ANA", "sample": "in vitro", "concentration": "200 nM", "notes": "whole 15-mer aptamer, many near background", "together with": "Cy3 exosite-II aptamer, 400 nM", "reading": "higher = stronger binding", "sequence": "GGTTGGTGTGGTTGG"}
{"Modification": "2'F-ANA at 1 4 5 6 8 10 12 13 14", "mean fluorescence intensity [a.u.]": 50.7}
{"Modification": "2'F-ANA at 2 3 5 6 7 11 12 13 14", "mean fluorescence intensity [a.u.]": 56.5}
{"Modification": "2'F-ANA at 2 3 4 11 12 14 15", "mean fluorescence intensity [a.u.]": 373}
{"Modification": "2'F-ANA at 2 3 4 5 9 10 11", "mean fluorescence intensity [a.u.]": 61.2}
{"Modification": "2'F-ANA at 1 2 4 5 7 10 11 12 14", "mean fluorescence intensity [a.u.]": 48.1}
{"Modification": "2'F-ANA at 2 6 7 10 11", "mean fluorescence intensity [a.u.]": 109}
{"Modification": "2'F-ANA at 3 4 7 9 11 12 13", "mean fluorescence intensity [a.u.]": 692}
{"Modification": "2'F-ANA at 1 2 3 4 7 10 11 15", "mean fluorescence intensity [a.u.]": 56.2}
{"Modification": "2'F-ANA at 2 3 4 6 7 8 9 11 12", "mean fluorescence intensity [a.u.]": 679}
{"Modification": "2'F-ANA at 2 5 6 7 8 9 10 12 13 14 15", "mean fluorescence intensity [a.u.]": 46.9}
{"Modification": "2'F-ANA at 1 4 6 7 9 11 12 14 15", "mean fluorescence intensity [a.u.]": 57.7}
{"Modification": "2'F-ANA at 1 2 3 6 7 9 10 12 13 14", "mean fluorescence intensity [a.u.]": 53.9}
{"Modification": "2'F-ANA at 2 3 5 6 7 8 9 11 13 15", "mean fluorescence intensity [a.u.]": 68.1}
{"Modification": "2'F-ANA at 1 2 3 5 6 7 8 9 13 15", "mean fluorescence intensity [a.u.]": 56.4}
{"Modification": "2'F-ANA at 2 3 5 6 7 9 10 11 12 14", "mean fluorescence intensity [a.u.]": 55.1}
{"Modification": "2'F-ANA at 3 4 5 6 11", "mean fluorescence intensity [a.u.]": 80.9}
{"Modification": "2'F-ANA at 1 2 4 5 6 7 8 14", "mean fluorescence intensity [a.u.]": 48.5}
{"Modification": "2'F-ANA at 2 6 8 9 10 13", "mean fluorescence intensity [a.u.]": 99.7}
{"Modification": "2'F-ANA at 2 3 4 7 10 11 13", "mean fluorescence intensity [a.u.]": 206}
{"Modification": "2'F-ANA at 1 2 3 4 5 6 8 9 10 11 12 13 15", "mean fluorescence intensity [a.u.]": 54.7}
{"Modification": "2'F-ANA at 1 2 5 7 9 12 15", "mean fluorescence intensity [a.u.]": 106}
{"Modification": "2'F-ANA at 1 2 4 6 7 8 11 15", "mean fluorescence intensity [a.u.]": 113}
{"Modification": "2'F-ANA at 1 4 7 11 12 14", "mean fluorescence intensity [a.u.]": 57.2}
{"Modification": "2'F-ANA at 2 5 6 7 9 12 14 15", "mean fluorescence intensity [a.u.]": 47.6}
{"Modification": "2'F-ANA at 1 5 7 10 12 13", "mean fluorescence intensity [a.u.]": 87.7}
{"note": "Repeated from above (study 2):"}
{"Sequence": "TTTTTTTTTTTTTCTGATCCGTGCTAG", "log fluorescence [z-score]": 0.9}
{"Sequence": "GACGGTTTGCTTATCCTGACGTGCTAG", "log fluorescence [z-score]": -0.00126}
{"Sequence": "TTAGATCTCGGTTTCGGTTAGTGCTAG", "log fluorescence [z-score]": 9.05}
{"Sequence": "GACGAACTGGGGTATGGAGACGTGCTA", "log fluorescence [z-score]": -0.661}
{"Sequence": "GACGGTCTCCTTCTCCTGAAGTGCTAG", "log fluorescence [z-score]": 0.108}
{"Sequence": "TTAGGTTTCGACAATCGGTTAGTGCTA", "log fluorescence [z-score]": 2.98}
{"Sequence": "TTAGGTATCGGGTTTCGGTTTGTGCTA", "log fluorescence [z-score]": 11.5}
{"Sequence": "AACACAAACCCGCTGGAGTTGTGCTAG", "log fluorescence [z-score]": -0.32}
